Results from different studies.
Numbered parts are unrelated; each lists some results of a single study.

Sample 1
Target: Interferon regulatory factor 7, full length, phosphomimetic (IRF7, Homo sapiens, UniProt Q92985, residues 1-503, S471D/S472D/S475D/S476D/S477D/S483D/S484D/S487D)
Method: protein-binding microarray
Form: double-stranded DNA, one strand shown
Medium: in vitro
Tested at: 2200 nM top
Setting: 60-bp whole probe
With: salmon DNA 0.4 mg/ml
Baseline: random background probes
Direction: higher = stronger binding
Endpoint: fitted relative affinity
Shared flanks, not repeated: GCCTAGCAC … GTCTTGATTCGCTTGACGCTGCTG
Construct (chain): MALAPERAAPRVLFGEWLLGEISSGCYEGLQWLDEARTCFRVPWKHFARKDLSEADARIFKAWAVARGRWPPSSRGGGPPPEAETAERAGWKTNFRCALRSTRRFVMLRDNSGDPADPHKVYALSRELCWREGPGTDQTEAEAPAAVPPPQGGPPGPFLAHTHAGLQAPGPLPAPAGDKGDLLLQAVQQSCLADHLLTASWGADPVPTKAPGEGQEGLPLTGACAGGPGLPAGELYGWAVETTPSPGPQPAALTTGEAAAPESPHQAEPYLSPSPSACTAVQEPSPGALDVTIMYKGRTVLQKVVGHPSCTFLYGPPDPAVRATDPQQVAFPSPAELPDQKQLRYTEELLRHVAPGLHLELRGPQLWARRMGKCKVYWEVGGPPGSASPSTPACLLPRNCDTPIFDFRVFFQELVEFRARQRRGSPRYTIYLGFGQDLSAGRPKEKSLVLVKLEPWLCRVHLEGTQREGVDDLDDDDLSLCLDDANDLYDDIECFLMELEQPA
TTAGGACTGGGTCTCGCTTAGTGCTAG: -0.181 z-score
GACGGACCGGGTATCGGGACGTGCTAG: -1.01 z-score
TCACATCTCAAGTAGCCTACTGTGCTA: 1.02 z-score
TCATCTTTCACTACTCCACTGTGCTAG: 2.88 z-score
GACGTTATCCTTTTCCTGACGTGCTAG: 1.93 z-score
TTCACTTTCCAAAGCGTGAGGTGCTAG: 2.19 z-score
GACGATTTCGGGTTCCGAGACGTGCTA: 5.14 z-score
TCACCTTGGCCTCTAGGACTGTGCTAG: 0.0808 z-score
GACGATTCCAATTTCGAGACGTGCTAG: 1.79 z-score
TCAGTTTTCTCTATTGCACTGTGCTAG: 2.48 z-score
TCAGGTTTCGGGTATCGGTTAGTGCTA: 6.54 z-score
TTAGGACTGGGAACTGGGTTAGTGCTA: -0.997 z-score
TTAGGAATGGGGACTGGGTTAGTGCTA: -0.567 z-score
TTAGTTTTCCTACTGCTTTAGTGCTAG: 1.83 z-score
GAATTTCCCACTTTCAGTTCGTGCTAG: 7.52 z-score
CAAATTGTCTCTGTCCCTGTGTGCTAG: 1.45 z-score
TTAGGTATCCTTTTCCTCTAGTGCTAG: 1.44 z-score
TCAAGAGTAGTTTTTCAAACTGTGCTA: -0.9 z-score
TAATTTTTTAGCTTCTCAATGTGCTAG: 0.277 z-score
CACGGTTTCGACACTGGGGACGTGCTA: 3.01 z-score

Sample 2
Target: Sal-like protein 4, full length isoform B (SALL4, Homo sapiens, UniProt Q9UJQ4-2, residues 1-616)
Method: universal PBM
Form: double-stranded DNA, one strand shown
Medium: in vitro
Tested at: not given
Setting: 8-mer, flanks averaged, mean of replicates
Direction: higher = stronger binding
Endpoint: E-score
Residues (chain): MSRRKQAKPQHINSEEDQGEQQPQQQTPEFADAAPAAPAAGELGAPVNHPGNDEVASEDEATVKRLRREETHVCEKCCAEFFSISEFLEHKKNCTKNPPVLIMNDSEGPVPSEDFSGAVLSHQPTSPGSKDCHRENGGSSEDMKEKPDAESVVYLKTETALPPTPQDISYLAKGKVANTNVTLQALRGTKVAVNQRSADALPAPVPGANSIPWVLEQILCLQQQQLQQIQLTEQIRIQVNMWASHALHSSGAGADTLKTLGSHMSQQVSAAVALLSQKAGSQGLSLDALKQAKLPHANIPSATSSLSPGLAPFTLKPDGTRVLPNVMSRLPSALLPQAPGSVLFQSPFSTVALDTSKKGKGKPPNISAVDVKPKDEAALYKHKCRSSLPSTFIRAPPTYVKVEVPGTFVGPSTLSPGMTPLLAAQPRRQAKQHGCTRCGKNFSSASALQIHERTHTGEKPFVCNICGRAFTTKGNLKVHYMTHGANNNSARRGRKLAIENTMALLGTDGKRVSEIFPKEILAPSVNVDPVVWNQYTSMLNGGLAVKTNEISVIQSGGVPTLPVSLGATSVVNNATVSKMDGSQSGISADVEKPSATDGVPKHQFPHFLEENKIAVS
ATGTATCC: 0.185
CATTGTGG: -0.0198
CCAAGGCG: -0.172
ACTGGGTC: -0.195
CTACATCA: -0.0336
ACCACGTC: -0.0991
ATTCCAGG: -0.0553
GGGTGCTA: -0.0971
CTTGGATC: -0.149
AAATGCGC: -0.0854
CCATTGTA: 0.186
ACTCCAAA: -0.00231
AGCTTTCG: -0.18
ACCCGGAG: -0.239
ACCCATAA: 0.233
ATTCCAAG: 0.0996
CATCCGTA: 0.0367
GCACAGAC: -0.00814
GACCCGCC: -0.272
GAGGCGCA: -0.191
ACAGACAC: -0.0155
GCTTCGAC: -0.181
AAAGCTAC: -0.102
AAATCTAT: 0.282

Sample 3
Target: RNA binding protein fox-1 homolog 2, RRM domain, GST-SBP tag (RBFOX2, Homo sapiens, UniProt O43251-10, residues 100-194)
Method: RNA Bind-n-Seq
Form: RNA
Medium: in vitro
Tested at: 365 nM
Setting: natural RNA segment, single round, ends assumed
Baseline: no-protein control
Direction: higher = stronger binding
Endpoint: RBNS enrichment (R)
Shared flanks, not repeated: GGGAGUUCUACAGUCCGACGAUC … UGGAAUUCUCGGGUGCCAA
Residues (chain): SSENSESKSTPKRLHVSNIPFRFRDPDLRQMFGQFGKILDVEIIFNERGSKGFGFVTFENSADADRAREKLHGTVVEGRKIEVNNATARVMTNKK
UUCCUAGCUUUCAGCCAUUAGAAACUCUUUUAAUAGUUCCUUUUGAGUUGUGAGCUCUUCUUCUGUAGCCCUGAAGGGACACUGUAUUCUGUAUGAAUGCAUGGCAUGAG: 3.92
UUUCUCCUCUCCAGUUUCUCUCUUGAAAGUCAAACAGUUUUGUAGUUGAAGCAGUCCGUGUGCAAAGCCUGCAUCUAAACACUUGCGUUAAUAAGUCAUUAACCGCUCAG: 0.39
AGAAUCUGCUGCUCUGGAAUAUUUCCCUUCGAUCUUAUCUCAGUCACUUCGUUUUUGAGAAGAGUGAUGCCUUGGGCAUGCUUUUUUUUUUUUCUUUUUUAGAAAACAGG: 0.539
UUUUGAACCUCGCUGGACCUUGUAUGUGUGCACAUUUGCCAGAGAUUGAACAUAAUCCUCUUGGGACUUCACGUUCUCAUUAUUUGUAUGUCUCCGGGGUCACGCAGAGC: 0.26
GAAGUACACAUUUGGCCCAAAUUCACCGGGAUAAGUGAGAACAGCCAGAAGCAUAAAAUGUGAUGAAGGUUUCUCCUGGGAACCUUAUUUUACUCUUCAUUUCAGGGUUU: 0.334
AGUGAGGCAUGUGCUGCACGUCCCUGUCGUACUUAGAGACCUGGCCGGUGCCCUGCGCGGGGCCUCCCCAGGACACACUGACGUAGAUUUGCUGUGUAGUCUUGGUGUGG: 1.78
CCUUCCACAUGUCAAUGUCGUAAGACAGAGAGCAAAGCCUCCCACCAUCGUUAGGACUCCUGAGUAACCAGGAGUUGCUGACUGUCCCUUCAAGUGACUGUGGCUCCUUU: 0.37
UAAAUCAAGGAACAUCAGUUAAGAGAUUUCCUAAUUUAUUUUUUAACUGAAUAAAUAUCAGUUAAAAGAUUGCCAGCAUGGUUACAGGUAAACUGAUUUUCAGAAUUCAC: 7.16
AGCACCCCCAGUGCUCGCUCAUGGGAAAUAUCAGCCCUAGGCUGGUUGUUUUUACAAAUCUCUCUCAGAUAUAUUAUUUUCAUGACAAAAAUGAAGGAGCUUUGUAAAUU: 0.409
CAUCUCUCUUCUGUACCACUAGAGGGAGCUCUGAUGCAGCUGGAGAGCAGCGCUCAAGGCUCUCGCCCCUCCCCUCCCUAACCCUUACCUUCAGUCUCCACCAGCCUGAA: 0.307
CGAGGCAGGCCUGCAGGGCCUGGGCUACACCAUCCUGCCAGUGUCUCCCUCUCAGUGUCUCCCUCUUGGAUCUGUAGAUCUUCCCUUUGUGUCCUGGCCAGCCCCCAAAU: 0.703
UGCCCCACCCAAGCCCAAACUUGGUUUCUGUGAGAAUAGUGGAGGAAGGUGAGAUGGCCAGUUUGAAGCCUGUGCCUCCCAGCUUAAAUCCUAGCAGGAGAGAGGCUCUG: 0.276

Sample 4
Target: Myc proto-oncogene protein, bHLH-zipper, MAX partner unstated (MYC, Homo sapiens, UniProt P01106, residues 368-449)
UniProt P01106, sequence (368-449, looked up): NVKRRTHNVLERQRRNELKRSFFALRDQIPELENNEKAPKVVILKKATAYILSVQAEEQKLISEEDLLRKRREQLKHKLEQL
Method: protein-binding microarray
Form: double-stranded DNA, one strand shown
Medium: in vitro
Tested at: not given
Setting: k-mer, scored over probes, only values ≥0.25
Direction: higher = stronger binding
Endpoint: E-score
CGTGCAGC: 0.361
ATAACGTG: 0.364
CACGACCG: 0.256
CAACCATG: 0.366
AGCTCGTG: 0.312
CGGTGTGC: 0.275
ACATGCTC: 0.408
ACCTCGTG: 0.475
AGACACGC: 0.428
GACGTGGC: 0.339
CCACATGG: 0.481
ACGTGTCG: 0.441
GCACGTGA: 0.479
ACGGGGTA: 0.255
CACACGCG: 0.458
CCGCGCAC: 0.317
ATTCCACG: 0.367
